# Experimental data of several laboratories.
# Protocols differ between the studies behind these lines. ± marks the error that the study gave.
# Spike glycoprotein: Spike glycoprotein (Severe acute respiratory syndrome coronavirus 2, UniProt P0DTC2)
# Spike glycoprotein RBD: Spike glycoprotein, RBD (Severe acute respiratory syndrome coronavirus 2, UniProt P0DTC2)
# Sequence of UniProt P41145 (whole entry, looked up): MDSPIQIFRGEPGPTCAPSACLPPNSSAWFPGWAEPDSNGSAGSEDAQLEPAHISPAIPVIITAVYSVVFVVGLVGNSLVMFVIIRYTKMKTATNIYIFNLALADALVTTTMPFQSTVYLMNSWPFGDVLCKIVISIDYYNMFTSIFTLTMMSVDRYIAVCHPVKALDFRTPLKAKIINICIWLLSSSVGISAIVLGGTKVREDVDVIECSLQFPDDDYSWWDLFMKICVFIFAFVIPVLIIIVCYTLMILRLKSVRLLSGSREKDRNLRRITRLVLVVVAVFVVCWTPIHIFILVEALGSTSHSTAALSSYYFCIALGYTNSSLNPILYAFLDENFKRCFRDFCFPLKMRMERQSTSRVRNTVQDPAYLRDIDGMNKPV
SMILES,tested on,assay,system,conditions,quantity,value
CC[C@H](C)[C@H](NC(=O)[C@H](CCCCNC(=O)CN(CCNC(=O)CN(CCNC(=O)CN(CCNC(=O)CN(CCNC(=O)CN(CCNC(=O)[C@H](CCCNC(=N)N)NC(C)=O)C(=O)Cn1cc(C)c(=O)[nH]c1=O)C(=O)Cn1ccc(N)nc1=O)C(=O)Cn1cnc2c(=O)[nH]c(N)nc21)C(=O)Cn1cnc2c(=O)[nH]c(N)nc21)C(=O)Cn1ccc(N)nc1=O)NC(=O)[C@H](CC(=O)O)NC(=O)[C@H](CO)NC(=O)[C@@H](NC(=O)[C@H](CCCNC(=N)N)NC(=O)[C@H](CCSC)NC(=O)[C@H](CO)NC(=O)[C@H](C)NC(=O)[C@H](CCC(=O)O)NC(=O)[C@H](C)NC(=O)[C@H](Cc1c[nH]cn1)NC(=O)CNC(=O)[C@H](CC(C)C)NC(=O)[C@H](CCC(=O)O)NC(=O)[C@H](CC(=O)O)NC(=O)[C@H](CC(C)C)NC(=O)[C@H](CC(C)C)NC(=O)[C@H](CCCNC(=N)N)NC(=O)[C@H](CCSC)NC(=O)[C@H](CCCC(=O)NCCN(CC(=O)NCCN(CC(=O)NCCN(CC(=O)NCCN(CC(=O)N[C@@H](CCCNC(=N)N)C(N)=O)C(=O)Cn1cnc2c(=O)[nH]c(N)nc21)C(=O)Cn1ccc(N)nc1=O)C(=O)Cn1ccc(N)nc1=O)C(=O)Cn1cnc2c(=O)[nH]c(N)nc21)NC(=O)[C@H](CCC(=O)O)NC(=O)[C@H](Cc1ccc(O)cc1)NC(=O)[C@@H](NC(=O)[C@H](CCCCN)NC(=O)[C@H](CCC(N)=O)NC(=O)[C@H](CC1CCC1)NC(=O)[C@@H](NC(=O)[C@H](Cc1c[nH]c2ccccc12)NC(=O)[C@H](CCC(=O)O)NC(=O)[C@H](CCCCN)NC(=O)[C@H](CC(=O)O)NC(C)=O)[C@@H](C)CC)[C@@H](C)CC)C(C)C)C(=O)N[C@@H](Cc1ccc(O)cc1)C(=O)N[C@@H](CCC(=O)O)C(=O)N[C@@H](Cc1ccccc1)C(=O)N[C@@H](CCSC)C(=O)N[C@@H](CCCCN)C(=O)N[C@@H](CCCCN)C(N)=O,Spike glycoprotein,"binding, SPR",,,Kd,0.12 nM
CCCCCCCCCCCCCCCC(=O)N[C@@H](CCC(=O)NCCCC[C@H](NC(=O)[C@H](CC(=O)O)NC(=O)[C@H](CO)NC(=O)[C@@H](NC(=O)[C@H](Cc1ccccc1)NC(=O)[C@@H](NC(=O)CNC(=O)[C@H](CCC(N)=O)NC(=O)[C@H](C)NC(=O)[C@@H](Cc1ccc(O)cc1)NC(C)=O)[C@@H](C)O)[C@@H](C)O)C(=O)N[C@@H](CO)C(=O)N[C@@H](CCCCN)C(=O)N[C@@H](Cc1ccc(O)cc1)C(=O)N[C@@H](CC(C)C)C(=O)N[C@@H](CC(=O)O)C(=O)N[C@@H](CCC(=O)O)C(=O)N[C@@H](CCCNC(=N)N)C(=O)N[C@@H](C)C(=O)N[C@@H](C)C(=O)N[C@@H](CCC(N)=O)C(=O)N[C@@H](CC(=O)O)C(=O)N[C@@H](Cc1ccccc1)C(=O)N[C@H](C(=O)N[C@@H](CCC(N)=O)C(=O)N[C@@H](Cc1c[nH]c2ccccc12)C(=O)N[C@@H](CC(C)C)C(=O)N[C@@H](CC(C)C)C(=O)N[C@@H](CCC(=O)O)C(=O)NCC(=O)NCC(=O)N1CCC[C@H]1C(=O)N[C@@H](CO)C(=O)N[C@@H](CO)C(=O)NCC(=O)N[C@@H](C)C(=O)N1CCC[C@H]1C(=O)N1CCC[C@H]1C(=O)N1CCC[C@H]1C(=O)N[C@@H](CO)C(N)=O)C(C)C)C(=O)O,,telemetry,conscious lean cynomolgus monkey,"subcutaneous, 30 and 100 µg/kg, 5 to 20 h post-dose",sustained heart rate increase,≤ 53 beats/min
CC(C)C[C@H](NC(=O)[C@H](Cc1c[nH]c2ccccc12)NC(=O)[C@H](Cc1c[nH]cn1)NC(=O)[C@H]1CCC[C@@H]1NC(=O)[C@H](CCC(=O)O)NC(=O)[C@H](CC(=O)O)NC(=O)[C@H](CC(=O)O)NC(=O)[C@@H](N)CC(N)=O)C(=O)N[C@H]1CCC[C@@H]1C(=O)N[C@H](C(=O)N[C@@H](CC(=O)O)C(=O)N[C@H]1CCC[C@@H]1C(=O)N[C@H](C(=O)N[C@@H](Cc1ccc(O)cc1)C(=O)N[C@@H](CCC(=O)O)C(=O)N[C@H]1CCC[C@@H]1C(=O)N[C@@H](Cc1c[nH]c2ccccc12)C(=O)N[C@@H](Cc1c[nH]cn1)C(N)=O)C(C)C)[C@@H](C)O,Spike glycoprotein RBD,,,,Kd,82500 nM
CNC(C)C1C(O)CC2(C)C3CCC4C(C)(C)C(NC)CCC45CC35CCC12C (stereo not drawn),Spike glycoprotein,binding,,,Kd,46500 nM
CC[C@H](C)[C@H](NC(=O)[C@H](CCCCNC(=O)CN(CCNC(=O)CN(CCNC(=O)CN(CCNC(=O)CN(CCNC(=O)[C@H](CCCNC(=N)N)NC(C)=O)C(=O)Cn1ccc(N)nc1=O)C(=O)Cn1cnc2c(=O)[nH]c(N)nc21)C(=O)Cn1cnc2c(=O)[nH]c(N)nc21)C(=O)Cn1ccc(N)nc1=O)NC(=O)[C@H](CC(=O)O)NC(=O)[C@H](CO)NC(=O)[C@@H](NC(=O)[C@H](CCCNC(=N)N)NC(=O)[C@H](CCSC)NC(=O)[C@H](CO)NC(=O)[C@H](C)NC(=O)[C@H](CCC(=O)O)NC(=O)[C@H](C)NC(=O)[C@H](Cc1c[nH]cn1)NC(=O)CNC(=O)[C@H](CC(C)C)NC(=O)[C@H](CCC(=O)O)NC(=O)[C@H](CC(=O)O)NC(=O)[C@H](CC(C)C)NC(=O)[C@H](CC(C)C)NC(=O)[C@H](CCCNC(=N)N)NC(=O)[C@H](CCSC)NC(=O)[C@H](CCCC(=O)NCCN(CC(=O)NCCN(CC(=O)NCCN(CC(=O)NCCN(CC(=O)N[C@@H](CCCNC(=N)N)C(N)=O)C(=O)Cn1cnc2c(=O)[nH]c(N)nc21)C(=O)Cn1ccc(N)nc1=O)C(=O)Cn1ccc(N)nc1=O)C(=O)Cn1cnc2c(=O)[nH]c(N)nc21)NC(=O)[C@H](CCC(=O)O)NC(=O)[C@H](Cc1ccc(O)cc1)NC(=O)[C@@H](NC(=O)[C@H](CCCCN)NC(=O)[C@H](CCC(N)=O)NC(=O)[C@H](CC(C)C)NC(=O)[C@@H](NC(=O)[C@H](Cc1c[nH]c2ccccc12)NC(=O)[C@H](CCC(=O)O)NC(=O)[C@H](CCCCN)NC(=O)[C@H](CC(=O)O)NC(C)=O)[C@@H](C)CC)[C@@H](C)CC)C(C)C)C(=O)N[C@@H](Cc1ccc(O)cc1)C(=O)N[C@@H](CCC(=O)O)C(=O)N[C@@H](Cc1ccccc1)C(=O)N[C@@H](CCSC)C(=O)N[C@@H](CCCCN)C(=O)N[C@@H](CCCCN)C(N)=O,Spike glycoprotein,"binding, SPR",,,Kd,0.074 nM
CC(C)C[C@H](NC(=O)[C@H](CC(=O)O)NC(=O)[C@H](CCC(=O)O)NC(=O)[C@H](C)NC(=O)[C@H](CCC(=O)O)NC(=O)[C@H](Cc1c[nH]cn1)NC(=O)[C@@H](N)CC(N)=O)C(=O)N[C@@H](Cc1ccccc1)C(=O)N[C@@H](Cc1ccc(O)cc1)C(=O)N[C@@H](CCC(N)=O)C(=O)N[C@@H](CO)C(=O)O,Spike glycoprotein,binding,,,Kd,1530 nM
C[C@@H]1O[C@@H](O[C@H]2[C@H](O)[C@@H](O)[C@H](OC[C@H]3O[C@@H](O[C@H]4CC[C@@]5(C)[C@@H](CC[C@]6(C)[C@@H]5C=C[C@]57OC[C@@]8(CCC(C)(C)C[C@H]85)[C@@H](O)C[C@]76C)[C@]4(C)CO)[C@H](O)[C@@H](O)[C@@H]3O)O[C@@H]2CO)[C@H](O)[C@H](O)[C@H]1O,"Spike glycoprotein, S1 subunit (Severe acute respiratory syndrome coronavirus 2, UniProt P0DTC2)",binding,,,Kd,6650 nM
Cc1cc(O)cc(C)c1C[C@H](N)C(=O)NCC(=O)NCC(=O)N[C@@H](Cc1ccccc1)C(=O)N[C@H](C(=O)NCC(=O)N[C@@H](C)C(=O)N[C@@H](CCCNC(=N)N)C(=O)N[C@@H](CCCCN)C(=O)N[C@@H](CO)C(=O)N[C@@H](C)C(=O)N[C@@H](CCCNC(=N)N)C(=O)N[C@@H](CCCCN)C(N)=O)[C@@H](C)O,"Kappa-type opioid receptor (OPRK1, Homo sapiens, UniProt P41145)","calcium mobilisation, agonist",CHO with Gαqi5,kappa receptor,EC50,21.9 nM
CC(C)C[C@H](NC(=O)[C@H](Cc1cn(CC(=O)O)c2ccccc12)NC(=O)[C@H](CCCNC(=N)N)NC(=O)[C@H]1CCC[C@@H]1NC(=O)[C@H](CCC(=O)O)NC(=O)[C@H](CC(=O)O)NC(=O)[C@H](CC(=O)O)NC(=O)[C@@H](N)CCCNC(=N)N)C(=O)N[C@H]1CCC[C@@H]1C(=O)N[C@H](C(=O)N[C@@H](CC(=O)O)C(=O)N[C@H]1CCC[C@@H]1C(=O)N[C@H](C(=O)N[C@@H](Cc1ccc(O)cc1)C(=O)N[C@@H](CCC(=O)O)C(=O)N[C@H]1CCC[C@@H]1C(=O)N[C@@H](Cc1c[nH]c2ccccc12)C(=O)N[C@@H](Cc1c[nH]cn1)C(N)=O)C(C)C)[C@@H](C)O,Spike glycoprotein RBD,,,,Kd,2100 nM
O=C(C=Cc1ccc(O)c(O)c1)OC1CC(O)(C(=O)O)CC(OC(=O)C=Cc2ccc(O)c(O)c2)C1O (stereo not drawn),Spike glycoprotein,"binding, BLI",,,Kd,1480 nM
CCCCCCCCCCCCCCCC(=O)N[C@@H](CCC(=O)NCCOCCOCCC(=O)NCCOCCOCCC(=O)NCCCC[C@H](NC(=O)[C@H](CC(=O)O)NC(=O)[C@H](CC(C)C)NC(=O)[C@H](Cc1ccc(O)cc1)NC(=O)[C@H](CCCCN)NC(=O)[C@H](CO)NC(=O)[C@H](Cc1ccc(O)cc1)NC(=O)[C@H](CC(=O)O)NC(=O)[C@H](CO)NC(=O)[C@@H](NC(=O)[C@H](Cc1ccccc1)NC(=O)[C@@H](NC(=O)CNC(=O)[C@H](CCC(N)=O)NC(=O)[C@@H](CO)NC(=O)[C@@H](N)Cc1c[nH]cn1)[C@@H](C)O)[C@@H](C)O)C(=O)N[C@@H](CCCNC(=N)N)C(=O)N[C@@H](CCCNC(=N)N)C(=O)N[C@@H](C)C(=O)N[C@@H](CCC(N)=O)C(=O)N[C@@H](CC(=O)O)C(=O)N[C@@H](Cc1ccccc1)C(=O)N[C@H](C(=O)N[C@@H](CCC(N)=O)C(=O)N[C@@H](Cc1c[nH]c2ccccc12)C(=O)N[C@@H](CC(C)C)C(=O)N[C@@H](CC(C)C)C(=O)N[C@@H](CC(N)=O)C(=O)N[C@H](C(=O)NCC(=O)NCC(=O)N1CCC[C@H]1C(=O)N[C@@H](CO)C(=O)N[C@@H](CO)C(=O)NCC(=O)N[C@@H](C)C(=O)N1CCC[C@H]1C(=O)N1CCC[C@H]1C(=O)N1CCC[C@H]1C(=O)N[C@@H](CO)C(N)=O)[C@@H](C)O)C(C)C)C(=O)O,,,"Sprague-Dawley rat, male","subcutaneous, 100 µg/kg once daily, 14 days",total cholesterol,0.61 ± 0.14 mmol/L
CC[C@@H](C)[C@@H](NC(=O)[C@@H](CCCCN)NC(=O)[C@@H](CCCCN)NC(=O)[C@@H](CC(C)C)NC(=O)[C@@H](Cc1c[nH]c2ccccc12)NC(=O)CN)C(=O)NCC(=O)N[C@H](CCCCN)C(=O)N[C@H](CCCCN)C(=O)N[C@@H](C(=O)N[C@H](CCC(=O)O)C(=O)N[C@H](CCCNC(=N)N)C(=O)N[C@@H](C(=O)NCC(=O)N[C@H](CCC(N)=O)C(=O)N[C@H](Cc1c[nH]cn1)C(=O)N[C@@H](C(=O)N[C@H](CCCNC(=N)N)C(=O)N[C@H](CC(=O)O)C(=O)N[C@H](C)C(=O)N[C@@H](C(=O)N[C@@H](C(=O)N[C@H](CCC(N)=O)C(=O)N[C@@H](C(=O)N[C@@H](C(=O)NCC(=O)N[C@@H](C(=O)N[C@H](C)C(=O)N[C@H](CCC(N)=O)C(=O)N[C@H](CCC(N)=O)C(=O)N[C@H](C)C(=O)N[C@H](C)C(=O)N[C@H](CC(N)=O)C(=O)N[C@@H](C(=O)N[C@H](C)C(=O)N[C@H](C)C(=O)N[C@@H](C(=O)N[C@H](CC(C)C)C(=O)N[C@H](CCCCN)C(N)=O)[C@H](C)O)C(C)C)C(C)C)[C@H](C)CC)[C@H](C)O)[C@H](C)CC)[C@H](C)O)[C@H](C)O)C(C)C)[C@H](C)CC,Pseudomonas aeruginosa,broth microdilution,"ATCC 27853, CAMHB",,MIC,> 1020 µg/mL

# Excerpt of the above:
SMILES,tested on,assay,system,conditions,quantity,value
O=C(C=Cc1ccc(O)c(O)c1)OC1CC(O)(C(=O)O)CC(OC(=O)C=Cc2ccc(O)c(O)c2)C1O (stereo not drawn),Spike glycoprotein,"binding, BLI",,,Kd,1480 nM
